{"data": "Measurements of several laboratories", "note": "Every numbered part comes from another study and shows a few of its results, in no order. Positions count from the first letter of the parent shown."}
{"data": "Series 1", "partner": "PRPF8 (Homo sapiens, UniProt Q6P2Q9)", "technique": "cross-linking MS", "sample": "cell fractions", "together with": "DSSO"}
{"Substance": "BUD31 (Homo sapiens, UniProt P41223)", "cross-linked residues": "K125 to K36"}
{"Substance": "TCERG1 (Homo sapiens, UniProt O14776)", "cross-linked residues": "K1049 to K1222"}
{"Substance": "MFAP1 (Homo sapiens, UniProt P55081)", "cross-linked residues": "K376 to K278"}
{"Substance": "USP39 (Homo sapiens, UniProt Q53GS9)", "cross-linked residues": "K508 to K983"}
{"Substance": "EFTUD2 (Homo sapiens, UniProt Q15029)", "cross-linked residues": "K405 to K218"}
{"data": "Series 2", "target": "Protein max, full length (MAX, Homo sapiens, UniProt P61244-2, residues 1-151)", "technique": "protein-binding microarray", "form": "double-stranded DNA, one strand shown", "sample": "in vitro", "concentration": "not given", "notes": "k-mer, scored over probes, only values ≥0.25", "reading": "higher = stronger binding"}
{"Strand": "ATGCTGTC", "E-score": 0.307}
{"Strand": "CACACTGC", "E-score": 0.259}
{"Strand": "CGTGTGCA", "E-score": 0.419}
{"Strand": "CAAGGTGG", "E-score": 0.257}
{"Strand": "CATGACAG", "E-score": 0.272}
{"Strand": "CATGGTGC", "E-score": 0.381}
{"Strand": "CGCGTGAA", "E-score": 0.384}
{"Strand": "CATGACGC", "E-score": 0.285}
{"data": "Mixed results", "OGT": "UDP-N-acetylglucosamine--peptide N-acetylglucosaminyltransferase 110 kDa subunit (OGT, Homo sapiens, UniProt O15294)", "P1": "PafA, mature enzyme, eGFP fusion (Elizabethkingia meningoseptica, UniProt Q9KJX5); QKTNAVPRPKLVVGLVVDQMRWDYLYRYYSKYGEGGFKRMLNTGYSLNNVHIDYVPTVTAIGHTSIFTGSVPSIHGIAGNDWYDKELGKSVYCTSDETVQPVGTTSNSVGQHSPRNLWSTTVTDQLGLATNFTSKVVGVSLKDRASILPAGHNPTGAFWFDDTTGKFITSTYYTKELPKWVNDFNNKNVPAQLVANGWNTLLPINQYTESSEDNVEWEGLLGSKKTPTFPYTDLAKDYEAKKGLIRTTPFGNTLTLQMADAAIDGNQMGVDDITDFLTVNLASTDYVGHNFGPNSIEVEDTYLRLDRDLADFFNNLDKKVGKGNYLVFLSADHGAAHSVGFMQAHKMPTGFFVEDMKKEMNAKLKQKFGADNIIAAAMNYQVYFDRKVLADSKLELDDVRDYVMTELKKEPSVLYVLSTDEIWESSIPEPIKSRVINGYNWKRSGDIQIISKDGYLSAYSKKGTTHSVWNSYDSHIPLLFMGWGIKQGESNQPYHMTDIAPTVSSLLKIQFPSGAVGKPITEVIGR", "P2": "viral docking peptide; TSVRRALFTGGSD; partner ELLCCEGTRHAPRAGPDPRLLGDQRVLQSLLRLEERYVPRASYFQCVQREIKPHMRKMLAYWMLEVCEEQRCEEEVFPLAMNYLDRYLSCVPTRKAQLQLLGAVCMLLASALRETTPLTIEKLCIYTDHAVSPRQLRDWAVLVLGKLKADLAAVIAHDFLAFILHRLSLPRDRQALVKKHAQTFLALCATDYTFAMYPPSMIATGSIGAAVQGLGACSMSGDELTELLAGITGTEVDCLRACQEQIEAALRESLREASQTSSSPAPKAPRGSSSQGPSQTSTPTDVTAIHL", "UniProt O15294, sequence (whole entry, looked up)": "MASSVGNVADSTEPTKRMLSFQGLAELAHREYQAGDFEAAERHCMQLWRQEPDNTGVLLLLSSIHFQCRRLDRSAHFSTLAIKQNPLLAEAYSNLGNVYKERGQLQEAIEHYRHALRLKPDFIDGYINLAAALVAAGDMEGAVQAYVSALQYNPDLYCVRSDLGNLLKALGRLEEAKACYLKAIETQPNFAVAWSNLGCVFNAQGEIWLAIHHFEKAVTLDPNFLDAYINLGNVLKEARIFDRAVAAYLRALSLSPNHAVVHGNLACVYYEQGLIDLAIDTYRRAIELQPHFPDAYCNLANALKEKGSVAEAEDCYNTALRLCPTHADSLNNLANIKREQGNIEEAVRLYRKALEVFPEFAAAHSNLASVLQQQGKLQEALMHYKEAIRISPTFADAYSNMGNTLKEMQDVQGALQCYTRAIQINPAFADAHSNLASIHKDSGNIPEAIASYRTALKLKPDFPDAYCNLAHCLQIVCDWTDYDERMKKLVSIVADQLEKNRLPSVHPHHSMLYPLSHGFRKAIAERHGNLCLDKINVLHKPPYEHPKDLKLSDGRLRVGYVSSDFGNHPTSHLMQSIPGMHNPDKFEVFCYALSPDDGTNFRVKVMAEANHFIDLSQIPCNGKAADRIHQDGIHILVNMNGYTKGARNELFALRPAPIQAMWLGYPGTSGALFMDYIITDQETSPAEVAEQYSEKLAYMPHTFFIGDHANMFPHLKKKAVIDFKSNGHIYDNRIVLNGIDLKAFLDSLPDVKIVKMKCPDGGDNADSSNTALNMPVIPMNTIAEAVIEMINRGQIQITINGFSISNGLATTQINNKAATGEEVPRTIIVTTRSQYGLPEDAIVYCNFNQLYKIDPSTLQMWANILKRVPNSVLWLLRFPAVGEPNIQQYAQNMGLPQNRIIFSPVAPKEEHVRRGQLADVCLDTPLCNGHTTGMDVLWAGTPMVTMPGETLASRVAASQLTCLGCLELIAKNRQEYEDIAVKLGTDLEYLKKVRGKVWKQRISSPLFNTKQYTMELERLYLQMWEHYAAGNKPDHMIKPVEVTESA"}
{"Substance": "P1 K225V", "target": "vanadate, free oxyanion", "test": "microfluidic competitive inhibition", "test system": "in vitro, cell-free expressed", "conditions": "not given, derived from inhibition constants, unchanged parent 676 nM", "scale": "lower = stronger binding", "measurement": "oxyanion analog dissociation constant", "result": "604 nM"}
{"Substance": "DTRWVPSYQIKYSYM", "target": "OGT", "test": "phage display binding, phage display panning NGS", "test system": "peptide", "conditions": "panning round 3", "scale": "reference: OGT-panned over input library", "measurement": "fold enrichment", "result": 1.97}
{"Substance": "P1 N186V", "target": "vanadate, free oxyanion", "test": "microfluidic competitive inhibition", "test system": "in vitro, cell-free expressed", "conditions": "not given, derived from inhibition constants, unchanged parent 676 nM", "scale": "lower = stronger binding", "measurement": "oxyanion analog dissociation constant", "result": "678 nM"}
{"Substance": "YNIYNPAYQIAYKF", "target": "OGT", "test": "phage display binding, phage display panning NGS", "test system": "peptide", "conditions": "panning round 3", "scale": "reference: OGT-panned over input library", "measurement": "fold enrichment", "result": 2.84}
{"Substance": "P1 Y238G", "target": "vanadate, free oxyanion", "test": "microfluidic competitive inhibition", "test system": "in vitro, cell-free expressed", "conditions": "not given, derived from inhibition constants, unchanged parent 676 nM", "scale": "lower = stronger binding", "measurement": "oxyanion analog dissociation constant", "result": "607 nM"}
{"Substance": "P2 G11Q", "target": "CCND3, cyclin fold, Cln2 fusion (human)", "test": "yeast growth competition, sequencing", "test system": "yeast", "conditions": "weak parent motif", "scale": "reference: not given, higher = stronger binding", "measurement": "normalised enrichment score", "result": 0.0647}
{"note": "For quick reference, copied from above (series 2):"}
{"Strand": "CACACTGC", "E-score": 0.259}
{"Strand": "CGTGTGCA", "E-score": 0.419}
{"Strand": "CAAGGTGG", "E-score": 0.257}
